# Experimental data gathered from unrelated publications.
# Compare with care: the assays were run in different laboratories. ± marks the error that the study gave.
SMILES,assay,system,setting,tissue uptake [%ID/g]
N=C(N)NCCC[C@H](NC(=O)CON=C[C@H](F)[C@@H](O)[C@H](O)[C@H](O)CO)C(=O)NCC(=O)N[C@@H](CC(=O)O)C(=O)O [fluorine-18 labelled],,"nude mice U-87 MG tumour, kidney","intravenous, 0.5 h",1.95 ± 0.17
NC12CNCCNCC(NCc3ccc(CNC(=O)CCCC(=O)NCc4ccc(-c5nncnn5)cc4)cc3)(CNCCNC1)CNCCNC2.[64Cu+2],,"athymic nude mice, SW1222 xenograft, stomach with contents","12 h, pretargeting with huA33-TCO, 24 h interval",0.21 ± 0.1
CCCC[C@H](NC(=O)CNC(=O)CNC(=O)CN1CCN(CC(=O)O)CCN(CC(=O)O)CC1)C(=O)N[C@H]1CC(=O)NCCCC[C@@H](C(N)=O)NC(=O)[C@H](Cc2c[nH]c3ccccc23)NC(=O)[C@H](CCCNC(=N)N)NC(=O)[C@@H](Cc2ccccc2)NC(=O)[C@H](Cc2c[nH]cn2)NC1=O [gallium-67 labelled],,"female C57 mice, B16/F1 melanoma, tumor","intravenous, 0.037 MBq, 0.5 h",20.6 ± 1.97
CC(C)[C@H](NC(=O)[C@@H]1CCCN1C(=O)[C@H](CCCNC(=N)N)NC(=O)[C@H](CS)NC(=O)[C@H](Cc1c[nH]c2ccccc12)NC(=O)[C@H](CCCNC(=N)N)NC(=O)[C@@H](Cc1ccccc1)NC(=O)[C@H](Cc1c[nH]cn1)NC(=O)[C@H](CCC(=O)O)NC(=O)[C@H](CS)NC(=O)[C@H](CS)NC(=O)CNC(=O)[C@@H]1CC(=O)N[C@@H](CCCNC(=N)N)C(=O)NCC(=O)N[C@@H](CC(=O)O)C(=O)N[C@H](Cc2ccc(O)cc2)C(=O)N1)C(N)=O [technetium-99m labelled],,"C57 mice B16/F1 melanoma female, stomach","iv, 2 h, with: NDP-MSH 10 µg co-injected",2.88 ± 0.66
O=C(NCC1OC2CCC=CCCC2O1)c1ccc([18F])nc1 (stereo not shown),,"female BALB/c nude mice, kidneys","intravenous, 60 min",4.5 ± 0.7
CC(C)[C@H](NC(=O)[C@@H]1CCCN1C(=O)[C@H](CCCNC(=N)N)NC(=O)[C@H](CS)NC(=O)[C@H](Cc1c[nH]c2ccccc12)NC(=O)[C@H](CCCNC(=N)N)NC(=O)[C@@H](Cc1ccccc1)NC(=O)[C@H](Cc1c[nH]cn1)NC(=O)[C@H](CCC(=O)O)NC(=O)[C@H](CS)NC(=O)[C@H](CS)NC(=O)[C@@H]1CC(=O)N[C@@H](CCCNC(=N)N)C(=O)NCC(=O)N[C@@H](CC(=O)O)C(=O)N[C@H](Cc2ccc(O)cc2)C(=O)N1)C(N)=O [technetium-99m labelled],,"C57 mice B16/F1 melanoma female, liver","iv, 2 h, with: NDP-MSH 10 µg co-injected",1.21 ± 0.24
O=C([O-])c1cccc(CN(CCN(Cc2cn(Cc3ccccc3)nn2)Cc2cccc(C(=O)[O-])n2)Cc2cn(Cc3ccccc3)nn2)n1.[64Cu+2],,"healthy athymic nude mice, skin","intravenous, 15 min",2.52
CCCC[C@H](NC(=O)CNC(=O)CNC(=O)CN1CCN(CC(=O)O)CCN(CC(=O)O)CCN(CC(=O)O)CC1)C(=O)N[C@H]1CC(=O)NCCCC[C@@H](C(N)=O)NC(=O)[C@H](Cc2c[nH]c3ccccc23)NC(=O)[C@H](CCCNC(=N)N)NC(=O)[C@@H](Cc2ccccc2)NC(=O)[C@H](Cc2c[nH]cn2)NC1=O [gallium-67 labelled],,"female C57 mice, B16/F1 melanoma, skin","intravenous, 0.037 MBq, 24 h",0.76 ± 0.21
CN1C(=O)[C@@H](Cc2ccc(O)c(I)c2)NC(=O)CNC(=O)[C@H](Cc2ccc3ccccc3c2)NC(=O)[C@H](CCCNC(=N)N)NC(=O)[C@H]1CCCNC(=O)c1ccc(CNC(=O)CN2CCN(CC(=O)O)CCN(CC(=O)O)CCN(CC(=O)O)CC2)cc1 [lutetium-177 labelled],item: 177Lu radioactivity,"female CB-17 SCID mice, Daudi xenograft, kidney","intravenous, 0.16 nmol per mouse, 48 h",1.2 ± 0.13
CCCC[C@H](NC(=O)CN1CCC(NC(=O)CN2CCN(CC(=O)O)CCN(CC(=O)O)CCN(CC(=O)O)CC2)CC1)C(=O)N[C@H]1CC(=O)NCCCC[C@@H](C(N)=O)NC(=O)[C@H](Cc2c[nH]c3ccccc23)NC(=O)[C@H](CCCNC(=N)N)NC(=O)[C@@H](Cc2ccccc2)NC(=O)[C@H](Cc2c[nH]cn2)NC1=O [gallium-68 labelled],,"C57BL/6J mice male B16-F10 tumour, stomach","1 h post injection, unblocked",0.5 ± 0.2
O=C([O-])CN1CCN(CC(=O)[O-])CCN(CC(=O)[O-])CCN(CC(=O)[O-])CC1.[64Cu+2],,"healthy athymic nude mice, small intestine","intravenous, 15 min",1.53
O=C([O-])CN1CCN(CC(=O)[O-])CCN(CC(=O)NCCc2ccc3c(c2)C2C=CCC2C(c2cc4c(cc2Br)OCO4)N3)CCN(CC(=O)[O-])CC1.[111In+3] (stereo not shown),,"mice with Hec50 tumour xenograft, small intestine","2 h, with: G-1 5 µg blocking",2.32 ± 0.76
CCCC[C@@H]1NC(=O)[C@@H](NC(=O)[C@H](CCC(=O)O)NC(=O)CNC(=O)CN2CCN(CC(=O)O)CCN(CC(=O)O)CCN(CC(=O)O)CC2)CCCCNC(=O)C[C@@H](C(N)=O)NC(=O)[C@H](C(C)C)NC(=O)[C@@H]2CCCN2C(=O)[C@H](CCCNC(=N)N)NC(=O)CNC(=O)[C@H](Cc2c[nH]c3ccccc23)NC(=O)[C@H](CCCNC(=N)N)NC(=O)[C@@H](Cc2ccccc2)NC(=O)[C@H](Cc2c[nH]cn2)NC(=O)[C@H](CCC(=O)O)NC1=O [gallium-67 labelled],,"B16/F1 melanoma-bearing C57 mice, normal organs except kidneys","intravenous, 0.037 MBq, 2, 4, 24 h, range over time points",< 0.3
